{"data": "Results gathered from unrelated publications", "note": "Each line is one published result; not all experiments were run side by side. ± gives the spread as reported."}
{"SMILES": "CN[C@H](CC(C)C)C(=O)N[C@H]1C(=O)N[C@@H](CC(N)=O)C(=O)N[C@H]2C(=O)N[C@H]3C(=O)N[C@H](C(=O)N[C@H](C(=O)O)c4cc(O)cc(O)c4-c4cc3ccc4O)[C@H](O)c3ccc(c(Cl)c3)Oc3cc2cc(c3O[C@@H]2O[C@H](CO)[C@@H](O)[C@H](O)[C@H]2O[C@H]2C[C@](C)(N)[C@H](O)[C@H](C)O2)Oc2ccc(cc2Cl)[C@H]1O", "test": "enzyme immunoassay", "system": "Danish Landrace pigs, plasma, free", "setting": "intravenous, 1000 mg, 100 min infusion, added: meropenem", "AUC(0-last)": "121000 ng·h/mL"}
{"SMILES": "CCCC[C@H](NC(C)=O)C(=O)N[C@H]1CCC(=O)NC[C@@H](C(=O)N[C@@H](Cc2c[nH]c3ccccc23)C(N)=O)NC(=O)[C@H](CCCNC(=N)N)NC(=O)[C@@H](Cc2ccccc2)NC(=O)[C@H](Cc2c[nH]cn2)NC1=O", "system": "beagle dog, female, plasma", "setting": "subcutaneous, 40.0 mg/kg daily, day 28", "AUC(0-last)": "6620 ng·h/mL"}
{"SMILES": "CCOc1ccc(Cc2cc([C@@H]3S[C@H](CO)[C@@H](O)[C@H](O)[C@H]3O)c(OC)cc2C)cc1", "system": "Japanese type 2 diabetes patients, plasma", "setting": "oral, 5 mg single dose, eGFR 60-89 mL/min/1.73 m^2", "AUC(0-last)": "2050 ± 390 ng·h/mL"}
{"SMILES": "CS(=O)(=O)n1cc2c(n1)CN([C@H]1CO[C@H](c3cc(F)ccc3F)[C@@H](N)C1)C2", "system": "healthy male human, plasma", "setting": "oral, 25 mg, fasted single dose", "AUC(0-last)": "22.4 µM·h"}
{"SMILES": "CCOCCn1c(C2CCN(CCc3ccc(C(C)(C)C(=O)O)cc3)CC2)nc2ccccc21", "system": "healthy human subjects, plasma", "setting": "oral, 20 mg, geometric LS mean", "AUC(0-last)": "699 ng·h/mL"}
{"SMILES": "COc1cccc(N2CCN(C3=Nc4c(F)cccc4[C@H](CC(=O)O)N3c3cc(C(F)(F)F)ccc3OC)CC2)c1", "system": "healthy women, plasma", "setting": "intravenous infusion, 240 mg, day 1, single dose, 30-min infusion", "AUC(0-last)": "30000 ± 5410 ng·h/mL"}
{"SMILES": "C[C@]12C=CC(=O)C=C1CC[C@@H]1[C@@H]2[C@@H](O)C[C@@]2(C)[C@H]1C[C@H]1O[C@@H](C3CCCCC3)O[C@]12C(=O)CO", "system": "children with asthma, serum", "setting": "inhaled, 160 µg ciclesonide, day 7, HFA-MDI without spacer, steady state", "AUC(0-last)": "0.443 ± 0.043 ng·h/mL"}
{"SMILES": "C[C@@H](O)[C@H]1C(=O)N2C(C(=O)O)=C(S[C@@H]3CN[C@H](C(=O)N(C)C)C3)[C@H](C)[C@H]12", "test": "microdialysis", "system": "Danish Landrace pigs, cancellous bone", "setting": "intravenous, 1000 mg, 10 min infusion, added: vancomycin", "AUC(0-last)": "19300 ng·h/mL"}
{"SMILES": "Cc1c(Cl)c(C)[n+]([O-])c(Cl)c1-c1noc(-c2cc(O)c(O)c([N+](=O)[O-])c2)n1", "system": "Parkinson's disease patients, plasma", "setting": "oral, 50 mg, day 1, after first dose", "AUC(0-last)": "1660 ± 1130 ng·h/mL"}
{"note": "For quick reference, copied from above:"}
{"SMILES": "COc1cccc(N2CCN(C3=Nc4c(F)cccc4[C@H](CC(=O)O)N3c3cc(C(F)(F)F)ccc3OC)CC2)c1", "system": "healthy women, plasma", "setting": "intravenous infusion, 240 mg, day 1, single dose, 30-min infusion", "AUC(0-last)": "30000 ± 5410 ng·h/mL"}
